Published values from different studies.
Each line is one published result; not all experiments were run side by side. “And” joins repeats or separate records; there may be more than shown. Numbers after ± are the reported error.

Nc1ncnc2c1c(-c1ccc(F)c(Cl)c1)cn2[C@@H]1O[C@H](CO)[C@@H](O)[C@H]1O — EC50 (HEK; cytotoxicity): > 200000 nM
CC(C)C[C@@H](/C=C/CC(=O)N1CCC[C@H]1C(=O)N[C@H](C(=O)N[C@@H](CCCNC(=O)OCc1ccccc1)C(=O)NC1CC(C)(C)N([O])C(C)(C)C1)C(C)C)NC(=O)OC(C)(C)C — EC50 (HT-1080; protection from ferroptosis, PrestoBlue; 24 h, added: erastin 10 µM): 895 nM
Nc1ncnc2c1c(-c1ccc(Cl)c(Cl)c1)cn2[C@H]1C[C@H](O)[C@@H](CO)O1 — EC50 (HEK; cytotoxicity): > 200000 nM
C=C1[C@H](O)CC(=C/C=C2\CCC[C@]3(C)[C@@H]([C@H](C)CCCC)CC[C@@H]23)C[C@H]1O — EC50 (HL-60; cell differentiation, NBT reduction; 50% maturation): 100 nM
FC(F)(F)c1ccnc(-c2cc(C(F)(F)F)ccn2)c1.FC(F)(F)c1ccnc(-c2cc(C(F)(F)F)ccn2)c1.[Cl-].[Cl-].[Ru+2].c1csc(-c2ccc(-c3ccc(-c4nc5c6cccnc6c6ncccc6c5[nH]4)s3)s2)c1 — EC50 (SK-MEL-28; cell viability; hypoxia 1% O2, added: visible light): 1200 nM and ~1000 nM
C=C1[C@H](O)CC(=C/C=C2\CCC[C@]3(C)[C@@H]([C@@H](C)CCCCO)CC[C@@H]23)C[C@H]1O — EC50 (HL-60; cell differentiation, NBT reduction; 50% maturation): 3 nM
CSCCC(C(=O)Nc1ccc2c(c1)OCCO2)N1Cc2ccccc2C1=O (stereo not shown) — EC50 (MEF with dox-inducible FLAG-LMNB1; lamin B1 reduction, high-content imaging, refers to: lamin B1; 48 h, added: doxycycline): 8700 ± 2600 nM
C(=C/c1ccccc1)/c1ccccc1 — EC50 (HL-60; apoptosis, Hoechst nuclear staining; 24 h, 50% apoptosis induction): 49000 nM
Nc1ncnc2c1c(-c1ccc(F)cc1)cn2[C@H]1C[C@H](O)[C@@H](CO)O1 — EC50 (HEK; cytotoxicity): > 200000 nM
CCc1noc(CC)c1C(=O)O[C@H]1C(C)=C[C@]23C(=O)[C@@H](C=C(CO)[C@@H](O)[C@]12O)[C@H]1[C@@H](C[C@H]3C)C1(C)C — EC50 (primary human epidermal keratinocytes; IL-8 release, stimulator; 6 h): 3.3 nM
Cc1ccc(-c2cn([C@@H]3O[C@H](CO)[C@@H](O)[C@H]3O)c3ncnc(N)c23)cc1F — EC50 (HEK; cytotoxicity): > 200000 nM
Oc1cccc2cnccc12 — EC50 (mouse DRG neurons axotomized; axon fragmentation; 2 h pretreatment, 16 h post-axotomy): > 40000 nM
CCCCCCCOc1ccc(CC[C@](N)(CO)COP(=O)(O)O)cc1C(F)(F)F — EC50 (human atrial myocytes; GIRK current, activator, whole-cell patch clamp; reference: carbachol 20 µM response): 41.6 nM

A few entries again:
CCc1noc(CC)c1C(=O)O[C@H]1C(C)=C[C@]23C(=O)[C@@H](C=C(CO)[C@@H](O)[C@]12O)[C@H]1[C@@H](C[C@H]3C)C1(C)C — EC50 (primary human epidermal keratinocytes; IL-8 release, stimulator; 6 h): 3.3 nM
